Results pooled from the literature.
A part holds a random share of what one study measured.
UniProt P43220, sequence (whole entry, looked up): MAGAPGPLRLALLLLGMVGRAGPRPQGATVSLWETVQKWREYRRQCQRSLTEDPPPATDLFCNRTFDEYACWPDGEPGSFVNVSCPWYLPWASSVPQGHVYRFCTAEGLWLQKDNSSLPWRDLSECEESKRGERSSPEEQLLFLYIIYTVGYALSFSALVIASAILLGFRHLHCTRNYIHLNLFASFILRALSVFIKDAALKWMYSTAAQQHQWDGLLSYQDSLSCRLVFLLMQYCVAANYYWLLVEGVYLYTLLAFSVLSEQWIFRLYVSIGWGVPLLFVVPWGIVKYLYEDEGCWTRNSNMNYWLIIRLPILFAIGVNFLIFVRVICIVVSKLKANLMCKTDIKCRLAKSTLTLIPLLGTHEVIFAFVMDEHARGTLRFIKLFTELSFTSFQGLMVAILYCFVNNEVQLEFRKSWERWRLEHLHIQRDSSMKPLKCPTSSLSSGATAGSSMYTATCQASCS
UniProt P45984, sequence (whole entry, looked up): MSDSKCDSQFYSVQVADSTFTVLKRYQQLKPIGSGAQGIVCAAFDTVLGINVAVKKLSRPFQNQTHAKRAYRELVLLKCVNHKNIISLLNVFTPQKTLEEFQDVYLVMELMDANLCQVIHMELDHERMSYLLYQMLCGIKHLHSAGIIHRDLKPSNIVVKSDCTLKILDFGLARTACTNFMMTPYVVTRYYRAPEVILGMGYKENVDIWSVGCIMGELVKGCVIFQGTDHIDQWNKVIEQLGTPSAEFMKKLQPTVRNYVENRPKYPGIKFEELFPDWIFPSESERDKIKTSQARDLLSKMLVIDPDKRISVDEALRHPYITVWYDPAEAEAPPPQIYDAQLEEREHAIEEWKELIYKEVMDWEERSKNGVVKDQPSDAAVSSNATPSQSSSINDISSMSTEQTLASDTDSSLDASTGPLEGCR
UniProt Q96RR4, sequence (whole entry, looked up): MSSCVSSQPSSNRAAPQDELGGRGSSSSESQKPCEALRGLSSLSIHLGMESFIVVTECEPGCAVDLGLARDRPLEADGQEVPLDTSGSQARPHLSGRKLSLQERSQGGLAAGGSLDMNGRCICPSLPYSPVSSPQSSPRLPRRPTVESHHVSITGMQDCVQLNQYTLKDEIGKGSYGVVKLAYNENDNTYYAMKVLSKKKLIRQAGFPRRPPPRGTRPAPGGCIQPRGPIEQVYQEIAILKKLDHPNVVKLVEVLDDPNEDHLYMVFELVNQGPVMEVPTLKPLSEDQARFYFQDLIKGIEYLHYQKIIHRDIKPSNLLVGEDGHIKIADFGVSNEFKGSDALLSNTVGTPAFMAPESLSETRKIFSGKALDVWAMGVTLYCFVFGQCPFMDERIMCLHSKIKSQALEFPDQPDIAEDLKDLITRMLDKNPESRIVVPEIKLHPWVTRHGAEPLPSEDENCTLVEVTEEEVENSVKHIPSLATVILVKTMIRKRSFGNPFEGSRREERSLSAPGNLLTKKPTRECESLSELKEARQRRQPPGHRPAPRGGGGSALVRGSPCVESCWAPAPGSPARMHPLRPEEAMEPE
UniProt P00519, sequence (whole entry, unmodified, looked up): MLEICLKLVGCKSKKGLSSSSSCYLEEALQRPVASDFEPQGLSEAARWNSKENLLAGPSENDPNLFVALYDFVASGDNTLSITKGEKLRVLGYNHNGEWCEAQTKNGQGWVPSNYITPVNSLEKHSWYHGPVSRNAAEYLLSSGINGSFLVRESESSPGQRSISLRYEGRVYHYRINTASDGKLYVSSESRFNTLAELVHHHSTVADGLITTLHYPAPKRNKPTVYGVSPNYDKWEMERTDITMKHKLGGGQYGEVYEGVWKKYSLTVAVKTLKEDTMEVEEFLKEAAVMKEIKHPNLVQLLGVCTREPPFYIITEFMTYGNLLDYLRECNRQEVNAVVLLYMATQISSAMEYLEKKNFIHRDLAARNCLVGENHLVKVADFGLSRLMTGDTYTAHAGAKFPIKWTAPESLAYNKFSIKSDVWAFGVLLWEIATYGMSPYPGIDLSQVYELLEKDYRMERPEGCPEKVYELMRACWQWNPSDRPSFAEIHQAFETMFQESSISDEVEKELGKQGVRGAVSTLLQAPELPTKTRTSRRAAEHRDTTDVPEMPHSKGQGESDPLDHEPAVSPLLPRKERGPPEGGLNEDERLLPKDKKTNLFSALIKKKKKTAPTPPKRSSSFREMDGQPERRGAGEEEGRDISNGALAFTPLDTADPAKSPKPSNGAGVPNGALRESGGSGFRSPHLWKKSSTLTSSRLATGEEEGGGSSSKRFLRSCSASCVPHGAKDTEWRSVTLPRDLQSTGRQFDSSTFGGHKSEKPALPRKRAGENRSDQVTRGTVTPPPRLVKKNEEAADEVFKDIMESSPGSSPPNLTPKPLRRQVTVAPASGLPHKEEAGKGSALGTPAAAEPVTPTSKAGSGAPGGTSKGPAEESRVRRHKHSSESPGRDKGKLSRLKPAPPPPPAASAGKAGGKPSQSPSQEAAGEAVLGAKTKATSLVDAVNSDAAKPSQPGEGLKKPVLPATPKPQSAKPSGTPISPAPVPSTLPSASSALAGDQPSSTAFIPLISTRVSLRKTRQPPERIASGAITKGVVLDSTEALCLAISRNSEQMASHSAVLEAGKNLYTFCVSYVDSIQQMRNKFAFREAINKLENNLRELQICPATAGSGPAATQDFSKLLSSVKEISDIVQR
UniProt Q9UIK4, sequence (whole entry, looked up): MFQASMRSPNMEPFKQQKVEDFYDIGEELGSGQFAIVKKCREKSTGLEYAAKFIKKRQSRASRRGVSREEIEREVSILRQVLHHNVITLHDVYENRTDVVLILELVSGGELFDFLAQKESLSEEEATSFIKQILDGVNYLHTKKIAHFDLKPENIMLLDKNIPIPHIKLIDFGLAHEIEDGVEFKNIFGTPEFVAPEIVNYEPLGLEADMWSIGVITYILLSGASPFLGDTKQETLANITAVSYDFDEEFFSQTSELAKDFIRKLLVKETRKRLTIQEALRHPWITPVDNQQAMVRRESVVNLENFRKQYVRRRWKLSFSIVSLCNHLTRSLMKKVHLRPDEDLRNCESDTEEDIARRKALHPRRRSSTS
UniProt P51955, sequence (whole entry, looked up): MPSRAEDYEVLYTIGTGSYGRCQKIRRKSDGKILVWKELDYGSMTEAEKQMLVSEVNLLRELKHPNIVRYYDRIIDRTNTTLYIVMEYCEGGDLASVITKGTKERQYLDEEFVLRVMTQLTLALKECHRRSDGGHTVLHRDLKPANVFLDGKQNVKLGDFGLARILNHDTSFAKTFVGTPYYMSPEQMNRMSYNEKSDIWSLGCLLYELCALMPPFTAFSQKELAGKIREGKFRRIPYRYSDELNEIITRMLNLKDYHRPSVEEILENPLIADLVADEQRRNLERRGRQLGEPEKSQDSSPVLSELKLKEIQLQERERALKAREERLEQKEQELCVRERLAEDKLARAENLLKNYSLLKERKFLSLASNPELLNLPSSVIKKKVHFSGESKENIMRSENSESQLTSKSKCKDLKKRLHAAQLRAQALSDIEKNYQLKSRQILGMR
UniProt P15056, sequence (whole entry, unmodified, looked up): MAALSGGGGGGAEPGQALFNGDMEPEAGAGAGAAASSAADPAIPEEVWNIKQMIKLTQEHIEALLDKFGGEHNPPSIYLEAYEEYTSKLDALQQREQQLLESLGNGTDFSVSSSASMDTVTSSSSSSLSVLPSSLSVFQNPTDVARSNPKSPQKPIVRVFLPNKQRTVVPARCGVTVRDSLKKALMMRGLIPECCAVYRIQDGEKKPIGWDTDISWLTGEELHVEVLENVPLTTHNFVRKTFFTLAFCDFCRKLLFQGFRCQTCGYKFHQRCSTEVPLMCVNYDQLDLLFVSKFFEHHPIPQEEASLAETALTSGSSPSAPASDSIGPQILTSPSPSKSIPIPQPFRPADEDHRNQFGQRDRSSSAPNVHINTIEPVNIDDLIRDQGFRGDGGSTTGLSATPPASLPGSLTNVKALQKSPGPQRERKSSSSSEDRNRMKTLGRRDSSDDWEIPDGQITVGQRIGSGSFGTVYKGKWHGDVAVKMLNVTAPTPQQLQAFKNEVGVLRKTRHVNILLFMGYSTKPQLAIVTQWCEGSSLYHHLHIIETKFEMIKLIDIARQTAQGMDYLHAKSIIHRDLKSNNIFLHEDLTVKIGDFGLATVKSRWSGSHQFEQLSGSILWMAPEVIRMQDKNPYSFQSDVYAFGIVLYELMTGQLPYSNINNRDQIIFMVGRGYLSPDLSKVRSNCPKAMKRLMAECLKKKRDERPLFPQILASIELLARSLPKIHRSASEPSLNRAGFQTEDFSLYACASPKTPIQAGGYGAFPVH
UniProt O95747, sequence (whole entry, looked up): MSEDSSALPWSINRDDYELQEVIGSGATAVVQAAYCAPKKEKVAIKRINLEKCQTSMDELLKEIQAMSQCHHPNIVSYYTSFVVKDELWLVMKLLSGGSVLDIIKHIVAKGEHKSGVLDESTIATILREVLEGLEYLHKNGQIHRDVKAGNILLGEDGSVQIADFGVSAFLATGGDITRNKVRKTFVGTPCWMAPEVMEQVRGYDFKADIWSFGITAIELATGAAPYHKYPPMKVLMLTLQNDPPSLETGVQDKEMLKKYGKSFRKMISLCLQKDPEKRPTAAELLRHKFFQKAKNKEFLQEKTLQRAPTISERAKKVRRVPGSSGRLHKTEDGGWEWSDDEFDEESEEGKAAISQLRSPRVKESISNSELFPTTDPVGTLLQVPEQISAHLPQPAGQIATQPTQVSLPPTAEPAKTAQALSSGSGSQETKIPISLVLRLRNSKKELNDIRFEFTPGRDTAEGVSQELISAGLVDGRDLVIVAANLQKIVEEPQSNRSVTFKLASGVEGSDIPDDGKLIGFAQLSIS
UniProt Q00535, sequence (whole entry, looked up): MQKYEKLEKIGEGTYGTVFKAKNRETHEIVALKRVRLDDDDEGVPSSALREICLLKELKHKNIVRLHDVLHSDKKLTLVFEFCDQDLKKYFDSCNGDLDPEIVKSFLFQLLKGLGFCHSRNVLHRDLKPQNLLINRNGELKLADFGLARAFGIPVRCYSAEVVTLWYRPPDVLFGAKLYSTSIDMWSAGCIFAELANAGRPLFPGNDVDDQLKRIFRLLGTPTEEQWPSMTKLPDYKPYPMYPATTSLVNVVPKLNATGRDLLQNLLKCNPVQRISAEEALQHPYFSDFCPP

Series 1
Compound: COc1ccc(COc2ccc(Cc3cnc(N)nc3N)cc2OC)cc1
Read-out: enzyme activity
Action: inhibitor
Concentration: 0.5 µM
Relative to: control
Measurement: remaining activity
Calcium/calmodulin-dependent protein kinase type II subunit delta (CAMK2D, Homo sapiens, UniProt Q13557): 109%
Death-associated protein kinase 1 (DAPK1, Homo sapiens, UniProt P53355): 102%
Serine/threonine-protein kinase Nek2 (NEK2, Homo sapiens, UniProt P51955): 99.2%
Mitogen-activated protein kinase 9 (MAPK9, Homo sapiens, UniProt P45984): 106%
Calcium/calmodulin-dependent protein kinase kinase 2 (CAMKK2, Homo sapiens, UniProt Q96RR4): 103%
cGMP-dependent protein kinase 1, isoform beta (PRKG1, Homo sapiens, UniProt Q13976): 91.7%
TGF-beta receptor type-2 (TGFBR2, Homo sapiens, UniProt P37173): 127%
Mitogen-activated protein kinase kinase kinase 3 (MAP3K3, Homo sapiens, UniProt Q99759): 97.8%
TGF-beta receptor type-1 (TGFBR1, Homo sapiens, UniProt P36897): 97%
Serine/threonine-protein kinase 10 (STK10, Homo sapiens, UniProt O94804): 100%
Serine/threonine-protein kinase Chk2 (CHEK2, Homo sapiens, UniProt O96017): 107%
Inhibitor of nuclear factor kappa-B kinase subunit beta (IKBKB, Homo sapiens, UniProt O14920): 99.9%
G protein-coupled receptor kinase 3 (GRK3, Homo sapiens, UniProt P35626): 103%
Protein kinase C beta type, isoform beta-I (PRKCB, Homo sapiens, UniProt P05771): 102%
Serine/threonine-protein kinase STK11 (STK11, Homo sapiens, UniProt Q15831): 103%
Death-associated protein kinase 2 (DAPK2, Homo sapiens, UniProt Q9UIK4): 95.3%
cAMP-dependent protein kinase catalytic subunit alpha (PRKACA, Homo sapiens, UniProt P17612): 104%
Protein kinase C alpha type (PRKCA, Homo sapiens, UniProt P17252): 95.9%
Cyclin-dependent kinase 4, with cyclin D1 (CDK4, Homo sapiens, UniProt P11802): 97.4%
Serine/threonine-protein kinase OSR1 (OXSR1, Homo sapiens, UniProt O95747): 103%
Tyrosine-protein kinase Lyn, isoform B (LYN, Homo sapiens, UniProt P07948): 98.1%
Cyclin-dependent kinase 5, with p25 (CDK5, Homo sapiens, UniProt Q00535): 103%

Series 2
SMILES: CCN(c1nc(N)c(C(=O)N=C(N)N)nc1Cl)C(C)C
Read-out: β-arrestin recruitment
Action: agonist
Technique: PRESTO-Tango
Concentration: 10 µM
Relative to: untreated
Measurement: fold over basal
C-X-C chemokine receptor type 5 (CXCR5, Homo sapiens, UniProt P32302): 1.06
Galanin receptor type 2 (GALR2, Homo sapiens, UniProt O43603): 0.43 fold
Sphingosine 1-phosphate receptor 3 (S1PR3, Homo sapiens, UniProt Q99500): 0.96
Metabotropic glutamate receptor 6 (Homo sapiens, UniProt O15303): 0.8 fold
5-hydroxytryptamine receptor 1D (HTR1D, Homo sapiens, UniProt P28221): 0.83
Glucagon-like peptide 1 receptor (GLP1R, Homo sapiens, UniProt P43220): 1.11 fold
5-hydroxytryptamine receptor 1E (HTR1E, Homo sapiens, UniProt P28566): 0.8

Series 3
SMILES: CCC(=O)N[C@@H]1CC[C@H](C(=O)N(C)c2ccc(-c3nc4ccccc4o3)cc2)C1
Read-out: cell-free assay
Technique: competition with immobilised ligand
Concentration: 1 µM
Measurement: remaining binding
Serine/threonine-protein kinase B-raf (BRAF, Homo sapiens, UniProt P15056, V600E): 100%
Dual specificity mitogen-activated protein kinase kinase 1 (MAP2K1, Homo sapiens, UniProt Q02750): 100%
Receptor-interacting serine/threonine-protein kinase 1 (RIPK1, Homo sapiens, UniProt Q13546): 100%
Insulin receptor (INSR, Homo sapiens, UniProt P06213): 93%
Tyrosine-protein kinase ABL1, non-phosphorylated (ABL1, Homo sapiens, UniProt P00519, F317L): 92%
Phosphatidylinositol 4-phosphate 3-kinase C2 domain-containing subunit beta (PIK3C2B, Homo sapiens, UniProt O00750): 70%
Serine/threonine-protein kinase D2 (PRKD2, Homo sapiens, UniProt Q9BZL6): 100%

Series 4
Technique: PRP chromatography
Notes: linear fit, 1 mL
Measurement: logD 1,9-decadiene/water
CC(C)C[C@@H]1NC(=O)[C@@H](C)NC(=O)[C@H](C)NC(=O)[C@@H](CC(C)C)NC(=O)[C@H](C(C)C)NC(=O)[C@H](CC(C)C)NC(=O)[C@@H](CC(C)C)NC1=O: -0.616 log units
CC(C)C[C@@H]1NC(=O)[C@H](C)NC(=O)[C@@H](CC(C)C)NC(=O)[C@H](CC(C)C)NC(=O)[C@@H](CCC(=O)N2CCCC2)NC(=O)[C@H](CC(C)C)NC(=O)[C@@H](CC(C)C)NC1=O: 0.662 log units
CC(C)C[C@@H]1NC(=O)[C@H](CC(C)C)NC(=O)[C@@H](CC(C)C)NC(=O)[C@H](C)NC(=O)[C@@H](CCC(=O)N2CCCC2)NC(=O)[C@H](C)NC(=O)[C@H](C)NC1=O: -3 log units
CC(C)C[C@@H]1NC(=O)[C@H](C)NC(=O)[C@H](C)NC(=O)[C@@H](CC(C)C)NC(=O)[C@H](C)NC(=O)[C@H](CC(C)C)NC(=O)[C@H](CC(C)C)NC1=O: -1.68 log units
CC(C)C[C@@H]1NC(=O)[C@H](C)NC(=O)[C@H](CCC(=O)N2CCCC2)NC(=O)[C@H](CC(C)C)NC(=O)[C@@H](CCC(=O)N2CCCC2)NC(=O)[C@H](CC(C)C)NC(=O)[C@@H](CC(C)C)NC1=O: -1.84 log units
CC(C)C[C@@H]1NC(=O)[C@@H](C)NC(=O)[C@@H](CC(C)C)NC(=O)[C@@H](C(C)C)NC(=O)[C@H](C)NC(=O)[C@H](CC(C)C)NC(=O)[C@@H](CC(C)C)NC1=O: -0.544 log units

Series 5
Target: Diamine acetyltransferase 1 (Homo sapiens, UniProt P21673)
Action: inhibitor
Concentration: 10 µM
Relative to: control
Measurement: remaining activity
Construct (P21673 1-171): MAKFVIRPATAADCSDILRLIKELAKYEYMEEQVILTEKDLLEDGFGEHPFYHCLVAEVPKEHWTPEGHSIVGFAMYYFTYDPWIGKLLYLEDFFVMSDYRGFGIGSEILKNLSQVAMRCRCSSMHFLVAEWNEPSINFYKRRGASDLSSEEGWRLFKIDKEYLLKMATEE
NCc1ccc(O)cc1: 107%
OC[C@H]1O[C@@H](Oc2c(O)cc(O)cc2/C=C\c2ccc(O)cc2)[C@H](O)[C@@H](O)[C@@H]1O: 111%
CCCCCCCCCCCCCCCCCCCCCCCC(=O)O: 95.4%
C/C=C(\C)C(=O)O[C@H]1[C@H](OC(C)=O)[C@]2(CO)[C@H](O)C[C@]3(C)C(=CC[C@@H]4[C@@]5(C)CC[C@H](O[C@@H]6O[C@H](C(=O)O)[C@@H](O[C@@H]7O[C@H](CO)[C@@H](O)[C@H](O)[C@H]7O)[C@H](O)[C@H]6O[C@@H]6O[C@H](CO)[C@@H](O)[C@H](O)[C@H]6O)[C@](C)(CO)[C@@H]5CC[C@]43C)[C@@H]2CC1(C)C: 96.2%
CCOC(=O)CC(C)O (stereo not drawn): 81%
CC1=C[C@H](O)CC(C)(C)[C@H]1/C=C/C(C)=C/C=C/C(C)=C/C=C/C=C(C)/C=C/C=C(C)/C=C/C1=C(C)C[C@@H](O)CC1(C)C: 96.9%

Some of these lines once more (series 2):
C-X-C chemokine receptor type 5 (CXCR5, Homo sapiens, UniProt P32302): 1.06
Galanin receptor type 2 (GALR2, Homo sapiens, UniProt O43603): 0.43 fold
Sphingosine 1-phosphate receptor 3 (S1PR3, Homo sapiens, UniProt Q99500): 0.96
Metabotropic glutamate receptor 6 (Homo sapiens, UniProt O15303): 0.8 fold
5-hydroxytryptamine receptor 1D (HTR1D, Homo sapiens, UniProt P28221): 0.83
